Measurements collected from several papers.
Each line is one published result; not all experiments were run side by side. ± marks the error that the study gave.
Cell line: HeLa

SMILES	observed	method	time	pH	notes	added	IC50
Cc1nn(-c2ccccc2)c(O)c1C(c1ccc(F)cc1)c1c(C)nn(-c2ccccc2)c1O	cell growth or viability	MTT	48 h	–	–	–	36.8 µM
CC1=C(I)C(C)=[N+]2C1=C(c1ccc(OCCn3cc(CNC(=O)CSC[C@H](NC(=O)c4ccc(-c5nnc(C)nn5)cc4)C(=O)N[C@@H](CCCNC(=N)N)C(=O)N[C@@H](CCCNC(=N)N)C(=O)N[C@@H](CCCNC(=N)N)C(=O)N[C@@H](CCCNC(=N)N)C(=O)N[C@@H](CCCNC(=N)N)C(N)=O)nn3)cc1)c1c(C)c(I)c(C)n1[B-]2(F)F	phototoxicity	–	2 h plus 18 h	–	2.5% FBS	irradiation 525 nm for 160 s	0.617 ± 0.024 µM
C[C@H](N)[C@@H](CCCCCCCCCCCCCCC(=O)CCCCCCC[C@@H](O)[C@@H](C)N)O[C@@H]1O[C@H](CO)[C@H](O)[C@H](O)[C@H]1O	cell growth or viability	–	–	–	–	–	12.5 µM
C[C@H]1O[C@@H](O[C@H]2CC[C@@]3(C)[C@H](CC[C@@H]4[C@@H]3C[C@@H](O)[C@]3(C)[C@@H](C5=CC(=O)OC5)[C@@H](O)C[C@]43O)C2)C[C@H](O)[C@@H]1O	cell growth or viability	MTT	48 h	–	–	–	0.64 µM
CC1=CC=c2ccc3c4c2[N]1[Re](=[C]=O)(=[C]=O)(=[C]=O)([C]#[N+]c1ccc(Cl)cc1)[N]4C(C)=CC=3.O=S(=O)([O-])C(F)(F)F	cell growth or viability	MTT	48 h	–	–	–	9.3 µM
CC(C)C[C@H](NC(=O)[C@H](CCCCN)NC(=O)[C@H](CC(C)C)NC(=O)[C@H](CC(C)C)NC(=O)[C@H](CCCCN)NC(=O)[C@H](CCCCN)NC(=O)[C@H](CC(C)C)NC(=O)[C@H](CC(C)C)NC(=O)[C@H](CCCCN)NC(=O)[C@H](CC(C)C)NC(=O)[C@H](CC(C)C)NC(=O)[C@H](CCCCN)NC(=O)[C@H](CCCCN)NC(=O)[C@@H](N)CC(C)C)C(N)=O	cell growth or viability	MTT	–	pH 6	–	–	11.7 µM
CCc1ccc(C(c2c(C)nn(-c3ccccc3)c2O)c2c(C)nn(-c3ccccc3)c2O)cc1	cell growth or viability	MTT	48 h	–	–	–	28.8 µM
C#CCCCC[C@H](C)C[C@@H](C)C(=O)N[C@@H](C)C(=O)N1CCC[C@H]1C(=O)N[C@H](C(=O)N[C@H](C(=O)N[C@H](C(=O)N[C@@H](Cc1ccccc1)C(=O)N1CCC[C@H]1C(=O)N1CCC[C@H]1C(C)=O)C(C)C)C(C)C)C(C)C	cell growth or viability	SRB	–	–	–	–	39 µM
CC(C)C[C@H](NC(=O)[C@H](CCCCN)NC(=O)[C@H](CC(C)C)NC(=O)[C@H](CC(C)C)NC(=O)[C@H](CCCCN)NC(=O)[C@H](CCCCN)NC(=O)[C@H](CC(C)C)NC(=O)[C@H](CC(C)C)NC(=O)[C@H](CCCCN)NC(=O)[C@H](CC(C)C)NC(=O)[C@H](CC(C)C)NC(=O)[C@H](CCCCN)NC(=O)[C@H](CCCCN)NC(=O)[C@H](CC(C)C)NC(=O)[C@@H](N)CSSC[C@H](N)C(=O)N[C@@H](CC(C)C)C(=O)N[C@@H](Cc1c[nH]cn1)C(=O)N[C@@H](CCC(=O)O)C(=O)N[C@@H](CC(C)C)C(=O)N[C@@H](CC(C)C)C(=O)N[C@@H](CCC(=O)O)C(=O)N[C@@H](Cc1c[nH]cn1)C(=O)N[C@@H](CC(C)C)C(=O)N[C@@H](Cc1c[nH]cn1)C(=O)N[C@@H](CCC(=O)O)C(=O)N[C@@H](CC(C)C)C(=O)N[C@@H](CC(C)C)C(=O)N[C@@H](CCC(=O)O)C(=O)N[C@@H](Cc1c[nH]cn1)C(N)=O)C(N)=O	cell growth or viability	MTT	–	pH 7.4	–	–	> 100 µM

A few entries again:
SMILES	observed	method	time	pH	notes	added	IC50
CC(C)C[C@H](NC(=O)[C@H](CCCCN)NC(=O)[C@H](CC(C)C)NC(=O)[C@H](CC(C)C)NC(=O)[C@H](CCCCN)NC(=O)[C@H](CCCCN)NC(=O)[C@H](CC(C)C)NC(=O)[C@H](CC(C)C)NC(=O)[C@H](CCCCN)NC(=O)[C@H](CC(C)C)NC(=O)[C@H](CC(C)C)NC(=O)[C@H](CCCCN)NC(=O)[C@H](CCCCN)NC(=O)[C@@H](N)CC(C)C)C(N)=O	cell growth or viability	MTT	–	pH 6	–	–	11.7 µM
